Experimental data of several laboratories.
A part holds a random share of what one study measured. Positions count from the first letter of the parent shown.

Set 1 — target: CCNE2, cyclin fold, Cln2 fusion (human); method: yeast growth competition, sequencing; medium: yeast; setting: weak parent motif; relative to: not given; direction: higher = stronger binding
Starting sequence: ORC1 docking peptide (human); PRARKRLELGNLG
| Substitution | normalised enrichment score |
| --- | --- |
| L12I | 0.42 |
| N11P | 1.2 |
| P1T | 0.506 |
| G10R | -0.0286 |
| E8R | 0.701 |
| G13F | 0.861 |
| K5V | 0.0845 |
| E8M | 0.527 |
| E8K | 0.549 |
| E8G | 0.562 |

Set 2 — method: protein-binding microarray; molecule type: double-stranded DNA, one strand shown; medium: in vitro; concentration: 250 nM; setting: 60-bp whole probe; with: salmon DNA 0.4 mg/ml; relative to: random background probes; direction: higher = stronger binding; shared flanks, not repeated: GCCTAGCAC … GTCTTGATTCGCTTGACGCTGCTG
Target: Interferon regulatory factor 7, full length, phosphomimetic (IRF7, Homo sapiens, UniProt Q92985, residues 1-503, S101K/S471D/S472D/S475D/S476D/S477D/S483D/S484D/S487D)
Sequence of UniProt Q92985 (whole entry, unmodified, looked up): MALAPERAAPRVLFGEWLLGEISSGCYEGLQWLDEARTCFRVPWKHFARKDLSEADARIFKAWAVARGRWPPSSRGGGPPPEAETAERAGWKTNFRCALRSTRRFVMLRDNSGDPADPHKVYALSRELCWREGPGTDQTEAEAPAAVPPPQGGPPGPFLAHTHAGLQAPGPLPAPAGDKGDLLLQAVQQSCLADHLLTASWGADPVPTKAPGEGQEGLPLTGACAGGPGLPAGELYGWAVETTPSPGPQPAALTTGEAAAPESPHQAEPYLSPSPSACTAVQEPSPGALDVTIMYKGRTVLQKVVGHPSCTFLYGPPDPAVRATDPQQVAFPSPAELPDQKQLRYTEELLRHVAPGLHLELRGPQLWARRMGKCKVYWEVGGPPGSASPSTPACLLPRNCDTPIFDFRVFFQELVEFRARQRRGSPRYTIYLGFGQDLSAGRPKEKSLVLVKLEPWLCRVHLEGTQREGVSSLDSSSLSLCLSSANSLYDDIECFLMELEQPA
| Strand | log fluorescence [z-score] |
| --- | --- |
| GAAGGACTGGGGTATCGGGACGTGCTA | -0.699 |
| GACGGTTTTCTTTTCCTGACGTGCTAG | 3.48 |
| GACGGTAGCGACACTGGGGACGTGCTA | -0.868 |
| TTAGGTATAGACTATCGGTTAGTGCTA | -0.344 |
| TTAGATCTCAGTCTCGATTTGTGCTAG | 5.11 |
| TTAAGTCTCCTTATCCTTTAGTGCTAG | 0.533 |
| GACGGTTTCGGTATCCGGACGTGCTAG | 11.6 |
| TTAGATATCGGGTTTCCATTAGTGCTA | 1.79 |
| TTAGGTCTAGGACTGGGTTAGTGCTAG | -0.111 |
| CACGGTTCCCTTTTCCTGACGTGCTAG | 2.96 |
| TTAGGTTTCGGGATTGGGTTAGTGCTA | 7.24 |
| GGCGGTCTCCTTCTCCTGACGTGCTAG | -0.527 |

Set 3 — method: DHFR PCA, deep sequencing; medium: yeast; with: (+)-ABA 4.8 µM; relative to: wild-type fitted maximum; direction: higher = stronger binding
Target: ABI1, truncated, D143A, DHFR fusion (Arabidopsis thaliana)
Setting: methotrexate growth selection, single substitutions
Starting sequence: PYL1, truncated, DHFR fusion (Arabidopsis thaliana); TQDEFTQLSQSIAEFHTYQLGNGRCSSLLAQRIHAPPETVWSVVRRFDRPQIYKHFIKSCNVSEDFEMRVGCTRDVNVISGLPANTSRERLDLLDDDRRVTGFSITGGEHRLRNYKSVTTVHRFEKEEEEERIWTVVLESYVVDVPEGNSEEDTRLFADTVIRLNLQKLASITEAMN
| Substitution | relative binding score [%] |
| --- | --- |
| P83Q | 21.9 |
| E4F | 54.2 |
| I52H | 54.1 |
| H55A | 89.7 |
| I33W | 3.82 |
| I57A | 9.1 |
| E130A | 80.9 |
| T101I | 81.8 |
| L169D | -2.87 |

Further values, each from its own experiment
| Molecule | target | assay | test system | conditions | how to read | endpoint | value |
| --- | --- | --- | --- | --- | --- | --- | --- |
| PhoQ, residues 284 288 289 292 302 303 SACGEM | PhoP, residues 12 14 15 18 19 LHHSG (Escherichia coli, UniProt P23836) | Sort-seq, item: YFP reporter | E. coli | PhoQ-PhoP variant library, with: 10 µM Mg2+ | relative to: high Mg2+ state, higher = stronger signaling | fold induction | 3.15 |

A few entries again (set 3):
| Substitution | relative binding score [%] |
| --- | --- |
| L169D | -2.87 |
| P83Q | 21.9 |
| E130A | 80.9 |
| I52H | 54.1 |
